Assay results pooled from the literature.
Compare with care: the assays were run in different laboratories. ± gives the spread as reported.

CN(C)c1ccc(/C=C/c2cc(=O)cc(/C=C/c3ccc(N(C)C)cc3)o2)cc1  fluorescence quantum yield (acetonitrile; 10 µM, 298 K; reference: 9,10-diphenylanthracene in toluene): 0.006
CCCCN1C(=O)c2cccc3c(NCCCN4CCOCC4)ccc(c23)C1=O  fluorescence quantum yield (ethylene glycol): 0.15
CCN(CC)c1ccc2c(c1)O[B-]1(c3ccccc3)OC(=O)C(c3ccccc3)=N[N+]1=C2C (stereo not shown)  fluorescence quantum yield (toluene): 0.75
CN1CCN(c2ccc(/C=C/c3cc(=O)cc(/C=C/c4ccc(N5CCN(C)CC5)cc4)o3)cc2)CC1  fluorescence quantum yield (acetonitrile/water 1:19 v/v; 10 µM, 298 K, aggregate nanoparticle suspension): 0.0005
COc1ccc2c(c1)O[B-]1(c3ccccc3)OC(=O)C(c3ccccc3)=N[N+]1=C2C (stereo not shown)  fluorescence quantum yield (toluene): 0.04
O=c1cc(/C=C/c2ccc(N3CCCC3)cc2)oc(/C=C/c2ccc(N3CCCC3)cc2)c1  fluorescence quantum yield (acetonitrile/water 1:19 v/v; 10 µM, 298 K, aggregate nanoparticle suspension): 0.12
CN1CCN(c2ccc3[nH]c(-c4ccc5[nH]c(-c6ccc(OCCCCNC(=O)c7cccc8c7C(=O)OC87c8ccc(N(C)C)cc8C(C)(C)c8cc(N(C)C)ccc87)cc6)nc5c4)nc3c2)CC1  fluorescence quantum yield (PBS): 0.05 ± 0.02
CCC1=[N+]2N=C(c3ccccc3)C(=O)O[B-]2(c2ccccc2)Oc2cc(OC)ccc21 (stereo not shown)  fluorescence quantum yield (toluene): 0.04
CCCCN1C(=O)c2cccc3c(NCCN4CCOCC4)ccc(c23)C1=O  fluorescence quantum yield (acetonitrile): 0.19
C=Cc1ccccc1[B-]12OC(=O)C(c3ccccc3)=N[N+]1=C(CC)c1ccc(N(CC)CC)cc1O2 (stereo not shown)  fluorescence quantum yield (toluene): 0.61
CC1(C)C(=CC=C2CCCC(C=CC3=[N+](CCC[N+](C)(C)C)c4ccc(S(=O)(=O)O)cc4C3(C)C)=C2SCCOCCOCCC(=O)O)N(CCC[N+](C)(C)C)c2ccc(S(=O)(=O)O)cc21  fluorescence quantum yield (HEPES buffer with FBS; pH 7.4, 50 mM HEPES, 30% FBS): 5.9%
O=c1cc(/C=C/c2ccc(N3CCOCC3)cc2)oc(/C=C/c2ccc(N3CCOCC3)cc2)c1  fluorescence quantum yield (acetonitrile/water 1:19 v/v; 10 µM, 298 K, aggregate nanoparticle suspension): 0.004
COC(=O)c1ccccc1-c1c2ccc(=[N+](C)C)cc-2oc2c1ccc1cccc(O)c12  fluorescence quantum yield (12.5 mM aqueous NaOH; pH 12.1, 10% DMSO): 0.17%
CCCCN1C(=O)c2cccc3c(N4CC[N+](C)(C5OC(C(=O)O)C(O)C(O)C5O)CC4)ccc(c23)C1=O (stereo not shown)  fluorescence quantum yield (Tris-HCl-acetonitrile 1:1; 5.0 µM; reference: quinine sulfate): 0.47
CCC1=[N+]2N=C(/C=C/c3ccccc3)C(=O)O[B-]2(c2ccccc2)Oc2cc(N(CC)CC)ccc21 (stereo not shown)  fluorescence quantum yield (toluene): 0.58
CCCCN1C(=O)c2cccc3c(NCCCCCCCCCCN4CCOCC4)ccc(c23)C1=O  fluorescence quantum yield (methanol): 0.75
Nc1cccc2ccc(/C=C/C(=O)c3ccc(C(F)(F)F)cc3)cc12  fluorescence quantum yield (toluene; reference: coumarin 153 in ethanol): 38.2 ± 1.9%
C=Cc1cccc([B-]23OC(=O)C(c4ccccc4)=N[N+]2=Cc2ccc(N(CC)CC)cc2O3)c1 (stereo not shown)  fluorescence quantum yield (toluene): 0.68
CCCCN1C(=O)c2cccc3c(NCCCCCCCCN4CCOCC4)ccc(c23)C1=O  fluorescence quantum yield (dichloromethane): 0.92

For quick reference, copied from above:
COc1ccc2c(c1)O[B-]1(c3ccccc3)OC(=O)C(c3ccccc3)=N[N+]1=C2C (stereo not shown)  fluorescence quantum yield (toluene): 0.04
O=c1cc(/C=C/c2ccc(N3CCCC3)cc2)oc(/C=C/c2ccc(N3CCCC3)cc2)c1  fluorescence quantum yield (acetonitrile/water 1:19 v/v; 10 µM, 298 K, aggregate nanoparticle suspension): 0.12
